Results collected from several papers.
Each numbered part is a random draw from the data of one study; scales do not carry over between parts. Several values in a cell are separate wells, animals, samples, runs or records.

Block 1
Structure (SMILES): Cc1ncsc1-c1ccc(C(CO)NC(=O)C2CC(O)CN2C(=O)C(C(C)C)n2cc(-c3ccc(COc4c(-c5c(C)c(F)cc6[nH]ncc56)c(C5CC5)cc5c(N6CC7CC6CN7)nc(OC6CCOCC6)nc45)cc3)nn2)cc1 (stereo not shown)
Effect on: KRAS-RAF interaction
Action: inhibitor
Method: TR-FRET
KRAS with RAF: GTPase KRas, with RAF (KRAS, Homo sapiens, UniProt P01116)
KRAS/VHL with RAF: KRAS/VHL, with RAF (Homo sapiens, UniProt P01116+P40337)
| target | setting | inhibition |
| --- | --- | --- |
| KRAS with RAF | 100 nM, binary, added: SOS-mediated nucleotide exchange | -6.77% and -3.1% |
| KRAS with RAF | 300 nM, binary, added: SOS-mediated nucleotide exchange | -4.58% and -2.53% |
| KRAS with RAF | 1 µM, binary, added: SOS-mediated nucleotide exchange | -0.247% and 3.02% |
| KRAS/VHL with RAF | 10 µM, ternary, KRAS wild type, added: VCB complex | 78.4% and 81.8% |
| KRAS with RAF | 30 nM, binary, added: SOS-mediated nucleotide exchange | -3.75% and -7.01% |
| KRAS/VHL with RAF | 3 µM, ternary, KRAS wild type, added: VCB complex | 68.9% and 66.8% |
| KRAS/VHL with RAF | 10 nM, ternary, KRAS wild type, added: VCB complex | 7.13% and 4.35% |

Block 2
SMILES: C[C@@H]1CN(c2ccc(-c3cc(C(=O)NCCOCCOCCOCCOCCNC(=O)/C=C/c4[nH]cc(C(=O)N[C@@H](CC(N)=O)c5ccc(F)c(Cl)c5)c4-c4ccc(Cl)cc4F)ccc3F)cc2NC(=O)c2c[nH]c(=O)cc2C(F)(F)F)C[C@H](C)N1C
Effect on: thermal unfolding
Method: differential scanning fluorimetry
Tested at: 5.5 µM
Direction: higher = more unfolded
DCAF1: DDB1- and CUL4-associated factor 1 (DCAF1, Homo sapiens, UniProt Q9Y4B6)
Sequence of UniProt Q9Y4B6 (whole entry, looked up): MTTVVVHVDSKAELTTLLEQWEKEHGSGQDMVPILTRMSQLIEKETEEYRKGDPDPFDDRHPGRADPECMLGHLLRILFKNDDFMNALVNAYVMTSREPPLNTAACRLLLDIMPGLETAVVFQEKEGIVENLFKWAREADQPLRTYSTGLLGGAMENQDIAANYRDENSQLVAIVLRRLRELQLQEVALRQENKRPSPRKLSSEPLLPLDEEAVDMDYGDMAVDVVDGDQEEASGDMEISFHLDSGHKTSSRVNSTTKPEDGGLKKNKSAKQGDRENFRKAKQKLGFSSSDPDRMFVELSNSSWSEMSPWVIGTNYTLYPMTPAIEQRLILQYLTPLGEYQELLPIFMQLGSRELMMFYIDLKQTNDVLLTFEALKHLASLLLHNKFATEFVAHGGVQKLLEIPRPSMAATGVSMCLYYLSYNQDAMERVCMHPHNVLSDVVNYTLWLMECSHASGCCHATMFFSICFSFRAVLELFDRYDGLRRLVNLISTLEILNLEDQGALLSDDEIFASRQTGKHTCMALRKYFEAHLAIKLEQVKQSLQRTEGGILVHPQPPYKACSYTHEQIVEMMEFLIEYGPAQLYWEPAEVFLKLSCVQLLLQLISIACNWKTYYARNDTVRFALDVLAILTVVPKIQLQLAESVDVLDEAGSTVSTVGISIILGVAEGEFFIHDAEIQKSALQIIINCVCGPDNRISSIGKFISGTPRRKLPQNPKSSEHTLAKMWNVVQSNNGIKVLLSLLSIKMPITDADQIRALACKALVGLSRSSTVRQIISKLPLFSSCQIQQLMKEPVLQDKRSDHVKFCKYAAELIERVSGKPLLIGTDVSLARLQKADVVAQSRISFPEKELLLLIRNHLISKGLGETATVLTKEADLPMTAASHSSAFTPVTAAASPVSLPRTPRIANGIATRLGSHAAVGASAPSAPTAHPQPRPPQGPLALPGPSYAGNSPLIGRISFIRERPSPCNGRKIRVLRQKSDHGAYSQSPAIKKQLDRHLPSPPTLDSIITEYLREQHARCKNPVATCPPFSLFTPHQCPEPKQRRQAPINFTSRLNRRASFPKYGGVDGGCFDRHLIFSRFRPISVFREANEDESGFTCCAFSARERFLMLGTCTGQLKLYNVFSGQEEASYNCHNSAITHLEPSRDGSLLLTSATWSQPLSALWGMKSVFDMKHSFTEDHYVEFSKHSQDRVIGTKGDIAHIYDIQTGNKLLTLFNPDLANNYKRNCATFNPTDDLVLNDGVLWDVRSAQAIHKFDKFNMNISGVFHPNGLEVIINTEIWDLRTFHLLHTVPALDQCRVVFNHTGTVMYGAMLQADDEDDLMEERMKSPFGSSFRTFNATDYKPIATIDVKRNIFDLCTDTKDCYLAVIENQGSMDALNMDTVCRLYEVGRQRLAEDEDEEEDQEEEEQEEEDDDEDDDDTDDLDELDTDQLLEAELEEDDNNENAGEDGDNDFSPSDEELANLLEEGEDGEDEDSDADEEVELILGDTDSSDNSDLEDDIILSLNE
WDR5: WD repeat-containing protein 5 (WDR5, Homo sapiens, UniProt P61964)
| target | setting | SYPRO Orange fluorescence [a.u.] |
| --- | --- | --- |
| DCAF1 | 69.21 °C | 56800 |
| DCAF1 | 68.61 °C | 57400 |
| DCAF1 | 67.41 °C | 58600 |
| DCAF1 | 66.41 °C | 59300 |
| WDR5 | 39.6 °C | 13900 |
| WDR5 | 57.41 °C | 16400 |
| WDR5 | 51.4 °C | 16800 |
| DCAF1 | 91.41 °C | 33600 |
| DCAF1 | 39.8 °C | 11500 |
| DCAF1 | 59.01 °C | 35900 |
| WDR5 | 38 °C | 14000 |

Block 3
SMILES: CN1CCC[C@H]1COc1nc2c(c(N3CCN(C(=O)C4CC4)[C@@H](CC#N)C3)n1)CCN(c1cccc3cccc(Cl)c13)C2
Effect on: binding
Action: competitor
Method: NanoBRET
Cell line: HEK293
KRAS G12D: GTPase KRas (KRAS, Homo sapiens, UniProt P01116, G12D)
KRAS Q61L: GTPase KRas (KRAS, Homo sapiens, UniProt P01116, Q61L)
KRAS G13D: GTPase KRas (KRAS, Homo sapiens, UniProt P01116, G13D)
KRAS Q61R: GTPase KRas (KRAS, Homo sapiens, UniProt P01116, Q61R)
| target | setting | normalized BRET |
| --- | --- | --- |
| KRAS G12D | 412 nM | 106% and 94.4% and 93.4% |
| KRAS Q61L | 5.08 nM | 95.1% and 90.4% and 96.7% |
| KRAS G12D | 11.1 µM | 64.1% and 90.4% and 75.4% |
| KRAS G12D | 45.7 nM | 95% and 99.8% and 102% |
| KRAS Q61L | 11.1 µM | 38.1% and 37% and 35.1% |
| KRAS G13D | 3.7 µM | 42.8% and 43.4% and 38.7% |
| GTPase KRas (KRAS, Homo sapiens, UniProt P01116, Q61H) | 33.3 µM | 6.88% and 7.8% and 7.68% |
| KRAS G13D | 1.24 µM | 70.7% and 64.8% and 62.5% |
| KRAS Q61R | 3.7 µM | 79.6% and 97.3% and 70.7% |
| KRAS Q61R | 45.7 nM | 88.2% and 98.4% and 98.6% |
| KRAS G12D | 1.24 µM | 83.4% and 94.3% and 97.7% |

Block 4
Compound: CCOc1ccc2nc(Sc3nc(Nc4ccc(I)cc4)nc(N4CCOCC4)n3)sc2c1
Target: 1-phosphatidylinositol 3-phosphate 5-kinase (PIKFYVE, Homo sapiens, UniProt Q9Y2I7)
Sequence of UniProt Q9Y2I7 (whole entry, looked up): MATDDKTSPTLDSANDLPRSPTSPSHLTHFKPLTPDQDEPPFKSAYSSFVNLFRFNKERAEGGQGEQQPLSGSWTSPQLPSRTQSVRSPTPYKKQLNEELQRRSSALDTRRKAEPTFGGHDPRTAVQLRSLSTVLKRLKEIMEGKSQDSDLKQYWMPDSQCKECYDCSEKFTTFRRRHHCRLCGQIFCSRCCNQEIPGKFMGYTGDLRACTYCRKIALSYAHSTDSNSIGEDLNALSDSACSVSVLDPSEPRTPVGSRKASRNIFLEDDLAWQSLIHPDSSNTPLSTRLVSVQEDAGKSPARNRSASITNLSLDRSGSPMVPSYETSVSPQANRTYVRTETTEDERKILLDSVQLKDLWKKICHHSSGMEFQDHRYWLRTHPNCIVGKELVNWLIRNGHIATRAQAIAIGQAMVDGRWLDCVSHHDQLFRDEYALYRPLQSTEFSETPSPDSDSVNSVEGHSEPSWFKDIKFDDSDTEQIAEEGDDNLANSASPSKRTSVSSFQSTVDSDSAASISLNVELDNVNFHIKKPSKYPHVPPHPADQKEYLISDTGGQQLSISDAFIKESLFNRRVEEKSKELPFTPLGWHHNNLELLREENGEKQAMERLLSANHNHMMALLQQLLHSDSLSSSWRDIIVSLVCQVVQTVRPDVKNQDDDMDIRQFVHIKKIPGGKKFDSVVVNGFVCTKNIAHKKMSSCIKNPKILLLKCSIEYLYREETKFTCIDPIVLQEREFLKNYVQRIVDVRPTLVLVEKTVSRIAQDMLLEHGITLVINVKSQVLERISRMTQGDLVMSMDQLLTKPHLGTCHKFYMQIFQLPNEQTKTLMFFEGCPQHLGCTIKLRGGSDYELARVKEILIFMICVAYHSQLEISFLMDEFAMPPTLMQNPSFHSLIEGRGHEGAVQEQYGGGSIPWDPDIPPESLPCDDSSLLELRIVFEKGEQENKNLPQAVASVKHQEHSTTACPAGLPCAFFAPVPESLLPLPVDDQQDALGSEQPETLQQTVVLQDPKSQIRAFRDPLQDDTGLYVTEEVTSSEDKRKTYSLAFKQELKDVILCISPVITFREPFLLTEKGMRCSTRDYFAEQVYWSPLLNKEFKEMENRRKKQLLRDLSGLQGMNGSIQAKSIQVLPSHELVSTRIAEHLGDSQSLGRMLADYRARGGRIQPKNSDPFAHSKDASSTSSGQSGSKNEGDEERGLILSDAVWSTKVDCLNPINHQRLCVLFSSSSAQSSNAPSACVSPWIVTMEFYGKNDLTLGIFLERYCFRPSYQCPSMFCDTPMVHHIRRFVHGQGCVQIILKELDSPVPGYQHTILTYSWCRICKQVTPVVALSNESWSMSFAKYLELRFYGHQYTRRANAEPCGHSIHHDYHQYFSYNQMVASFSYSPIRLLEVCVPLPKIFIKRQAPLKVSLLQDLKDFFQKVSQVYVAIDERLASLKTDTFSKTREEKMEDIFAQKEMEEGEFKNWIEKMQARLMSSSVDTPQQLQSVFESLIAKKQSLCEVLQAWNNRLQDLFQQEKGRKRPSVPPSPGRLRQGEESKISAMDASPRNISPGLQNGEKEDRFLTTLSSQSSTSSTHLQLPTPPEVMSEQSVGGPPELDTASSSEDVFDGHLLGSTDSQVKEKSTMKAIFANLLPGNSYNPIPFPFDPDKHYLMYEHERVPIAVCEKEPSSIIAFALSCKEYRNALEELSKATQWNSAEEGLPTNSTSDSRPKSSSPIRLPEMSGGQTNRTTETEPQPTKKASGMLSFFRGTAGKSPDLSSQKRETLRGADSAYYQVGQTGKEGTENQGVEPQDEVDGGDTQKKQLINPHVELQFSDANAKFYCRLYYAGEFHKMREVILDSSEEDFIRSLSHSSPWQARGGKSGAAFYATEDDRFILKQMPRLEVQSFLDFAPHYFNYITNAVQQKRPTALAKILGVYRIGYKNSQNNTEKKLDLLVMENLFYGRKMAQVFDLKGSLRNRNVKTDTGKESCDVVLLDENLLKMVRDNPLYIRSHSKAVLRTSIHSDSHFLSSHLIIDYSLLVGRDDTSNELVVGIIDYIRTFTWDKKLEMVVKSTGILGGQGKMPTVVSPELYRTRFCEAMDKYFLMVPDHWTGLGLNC
Method: KINOMEscan
Notes: unit not given
Baseline: DMSO
| setting | remaining binding |
| --- | --- |
| 370 nM | 0.0769 and 0.075 |
| 4.57 nM | 0.876 and 0.838 |
| 0.503 nM | 0.853 and 0.744 |
| 10000 nM | 0.00233 and 0.00337 |
| 13.6 nM | 0.688 and 0.682 |
| 1100 nM | 0.0262 and 0.0218 |
| 123 nM | 0.209 and 0.191 |
| 0.168 nM | 0.938 and 0.764 |

Repeated from above (block 1):
| target | setting | inhibition |
| --- | --- | --- |
| KRAS with RAF | 30 nM, binary, added: SOS-mediated nucleotide exchange | -3.75% and -7.01% |
| KRAS/VHL with RAF | 3 µM, ternary, KRAS wild type, added: VCB complex | 68.9% and 66.8% |
| KRAS/VHL with RAF | 10 nM, ternary, KRAS wild type, added: VCB complex | 7.13% and 4.35% |
